Measurements from different studies.
Every numbered part comes from another study and shows a few of its results, in no order.
Sequence of UniProt Q15746 (whole entry, looked up): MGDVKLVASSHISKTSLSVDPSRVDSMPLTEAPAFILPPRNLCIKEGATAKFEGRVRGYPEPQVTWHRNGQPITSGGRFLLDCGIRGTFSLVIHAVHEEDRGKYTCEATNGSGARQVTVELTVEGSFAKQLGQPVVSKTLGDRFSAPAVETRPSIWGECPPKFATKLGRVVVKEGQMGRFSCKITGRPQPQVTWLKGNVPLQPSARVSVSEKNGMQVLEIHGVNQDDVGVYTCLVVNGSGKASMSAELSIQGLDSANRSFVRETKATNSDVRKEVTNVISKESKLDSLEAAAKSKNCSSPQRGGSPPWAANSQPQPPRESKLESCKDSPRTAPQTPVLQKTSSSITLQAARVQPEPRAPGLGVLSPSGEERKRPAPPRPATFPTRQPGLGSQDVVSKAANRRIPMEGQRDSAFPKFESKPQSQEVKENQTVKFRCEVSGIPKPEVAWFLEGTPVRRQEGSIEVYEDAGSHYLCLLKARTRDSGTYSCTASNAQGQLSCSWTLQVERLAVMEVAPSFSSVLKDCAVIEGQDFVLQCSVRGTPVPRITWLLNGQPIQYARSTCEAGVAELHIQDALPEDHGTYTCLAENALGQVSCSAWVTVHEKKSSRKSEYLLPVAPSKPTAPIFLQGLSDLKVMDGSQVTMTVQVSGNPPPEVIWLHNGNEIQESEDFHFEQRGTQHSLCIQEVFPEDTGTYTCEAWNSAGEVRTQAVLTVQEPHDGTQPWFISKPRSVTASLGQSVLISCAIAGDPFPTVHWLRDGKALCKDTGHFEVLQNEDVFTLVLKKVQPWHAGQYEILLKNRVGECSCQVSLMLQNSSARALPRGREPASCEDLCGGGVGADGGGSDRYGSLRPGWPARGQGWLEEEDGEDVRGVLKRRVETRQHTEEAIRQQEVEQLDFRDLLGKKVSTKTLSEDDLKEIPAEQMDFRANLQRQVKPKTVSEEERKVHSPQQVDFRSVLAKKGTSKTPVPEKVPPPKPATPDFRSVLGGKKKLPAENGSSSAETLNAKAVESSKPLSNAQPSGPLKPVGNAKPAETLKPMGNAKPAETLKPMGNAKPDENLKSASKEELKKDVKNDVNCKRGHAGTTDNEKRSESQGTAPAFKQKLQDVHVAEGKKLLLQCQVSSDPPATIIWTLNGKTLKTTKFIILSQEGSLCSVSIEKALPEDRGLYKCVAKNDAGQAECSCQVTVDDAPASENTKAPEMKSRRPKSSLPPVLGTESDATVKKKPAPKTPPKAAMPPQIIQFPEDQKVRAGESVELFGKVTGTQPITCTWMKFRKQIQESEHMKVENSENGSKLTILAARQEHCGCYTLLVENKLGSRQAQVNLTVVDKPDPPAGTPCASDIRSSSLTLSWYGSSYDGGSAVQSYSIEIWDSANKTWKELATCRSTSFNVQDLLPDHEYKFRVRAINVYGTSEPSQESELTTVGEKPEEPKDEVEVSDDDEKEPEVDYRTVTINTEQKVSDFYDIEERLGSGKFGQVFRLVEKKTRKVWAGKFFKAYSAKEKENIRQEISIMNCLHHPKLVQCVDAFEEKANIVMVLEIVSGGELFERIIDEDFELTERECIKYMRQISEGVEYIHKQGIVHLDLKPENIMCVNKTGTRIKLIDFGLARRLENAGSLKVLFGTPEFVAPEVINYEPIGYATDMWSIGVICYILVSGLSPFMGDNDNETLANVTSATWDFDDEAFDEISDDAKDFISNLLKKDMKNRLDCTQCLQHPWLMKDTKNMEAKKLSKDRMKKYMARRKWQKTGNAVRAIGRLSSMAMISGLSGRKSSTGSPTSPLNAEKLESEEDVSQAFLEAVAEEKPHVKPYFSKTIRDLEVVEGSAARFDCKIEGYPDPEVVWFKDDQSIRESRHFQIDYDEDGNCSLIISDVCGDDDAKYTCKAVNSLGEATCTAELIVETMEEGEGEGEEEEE
Sequence of UniProt P43250 (whole entry, looked up): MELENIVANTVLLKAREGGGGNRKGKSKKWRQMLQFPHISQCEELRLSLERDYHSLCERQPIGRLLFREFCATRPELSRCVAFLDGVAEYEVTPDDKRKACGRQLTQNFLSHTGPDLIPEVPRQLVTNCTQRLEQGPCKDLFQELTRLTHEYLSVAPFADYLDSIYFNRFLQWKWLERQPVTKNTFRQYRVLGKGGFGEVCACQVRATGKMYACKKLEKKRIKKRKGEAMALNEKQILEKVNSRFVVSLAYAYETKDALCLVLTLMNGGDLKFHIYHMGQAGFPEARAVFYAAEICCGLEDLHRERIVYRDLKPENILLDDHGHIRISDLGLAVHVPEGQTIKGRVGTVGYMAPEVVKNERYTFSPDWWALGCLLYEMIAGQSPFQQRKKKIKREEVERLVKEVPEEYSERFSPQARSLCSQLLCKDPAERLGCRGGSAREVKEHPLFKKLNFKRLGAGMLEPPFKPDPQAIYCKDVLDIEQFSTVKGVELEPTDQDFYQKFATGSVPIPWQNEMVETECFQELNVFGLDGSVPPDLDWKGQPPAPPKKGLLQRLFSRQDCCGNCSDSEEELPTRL
Sequence of UniProt P25098 (whole entry, looked up): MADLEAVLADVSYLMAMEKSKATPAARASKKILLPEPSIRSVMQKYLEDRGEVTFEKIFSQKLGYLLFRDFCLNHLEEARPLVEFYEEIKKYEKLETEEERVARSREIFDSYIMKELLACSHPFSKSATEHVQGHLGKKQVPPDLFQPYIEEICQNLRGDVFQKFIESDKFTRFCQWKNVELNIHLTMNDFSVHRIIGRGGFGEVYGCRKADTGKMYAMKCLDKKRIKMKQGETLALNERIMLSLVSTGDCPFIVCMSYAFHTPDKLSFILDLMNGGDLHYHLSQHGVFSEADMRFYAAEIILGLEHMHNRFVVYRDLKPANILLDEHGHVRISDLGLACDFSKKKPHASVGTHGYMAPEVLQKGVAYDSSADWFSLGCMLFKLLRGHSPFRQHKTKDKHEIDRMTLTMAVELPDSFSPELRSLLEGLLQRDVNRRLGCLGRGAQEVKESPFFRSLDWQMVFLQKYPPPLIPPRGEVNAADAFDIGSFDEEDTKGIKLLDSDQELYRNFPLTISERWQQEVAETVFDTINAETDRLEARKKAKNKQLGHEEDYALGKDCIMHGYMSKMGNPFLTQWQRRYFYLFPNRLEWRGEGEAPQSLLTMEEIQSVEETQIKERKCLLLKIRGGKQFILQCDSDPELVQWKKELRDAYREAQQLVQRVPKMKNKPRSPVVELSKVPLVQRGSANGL
Sequence of UniProt Q15418 (whole entry, looked up): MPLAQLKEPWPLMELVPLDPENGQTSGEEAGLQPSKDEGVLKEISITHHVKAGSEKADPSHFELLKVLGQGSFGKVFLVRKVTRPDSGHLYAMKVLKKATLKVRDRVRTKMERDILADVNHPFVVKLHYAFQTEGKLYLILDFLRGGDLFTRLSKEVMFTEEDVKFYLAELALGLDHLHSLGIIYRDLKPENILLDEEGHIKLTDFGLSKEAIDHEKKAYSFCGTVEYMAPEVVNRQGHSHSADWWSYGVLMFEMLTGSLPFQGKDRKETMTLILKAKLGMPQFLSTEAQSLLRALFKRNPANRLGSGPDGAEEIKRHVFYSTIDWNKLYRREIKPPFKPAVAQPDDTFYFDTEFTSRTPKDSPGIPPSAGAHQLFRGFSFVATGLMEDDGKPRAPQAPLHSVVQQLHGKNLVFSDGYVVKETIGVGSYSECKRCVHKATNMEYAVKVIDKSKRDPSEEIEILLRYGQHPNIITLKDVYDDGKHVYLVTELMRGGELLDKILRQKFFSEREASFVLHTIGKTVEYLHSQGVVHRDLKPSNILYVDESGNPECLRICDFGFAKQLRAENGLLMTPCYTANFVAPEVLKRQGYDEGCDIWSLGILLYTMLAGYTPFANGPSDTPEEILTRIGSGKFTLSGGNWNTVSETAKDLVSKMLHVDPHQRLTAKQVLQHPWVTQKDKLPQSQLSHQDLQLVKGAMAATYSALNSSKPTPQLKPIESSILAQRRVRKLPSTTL
Sequence of UniProt P62344 (whole entry, looked up): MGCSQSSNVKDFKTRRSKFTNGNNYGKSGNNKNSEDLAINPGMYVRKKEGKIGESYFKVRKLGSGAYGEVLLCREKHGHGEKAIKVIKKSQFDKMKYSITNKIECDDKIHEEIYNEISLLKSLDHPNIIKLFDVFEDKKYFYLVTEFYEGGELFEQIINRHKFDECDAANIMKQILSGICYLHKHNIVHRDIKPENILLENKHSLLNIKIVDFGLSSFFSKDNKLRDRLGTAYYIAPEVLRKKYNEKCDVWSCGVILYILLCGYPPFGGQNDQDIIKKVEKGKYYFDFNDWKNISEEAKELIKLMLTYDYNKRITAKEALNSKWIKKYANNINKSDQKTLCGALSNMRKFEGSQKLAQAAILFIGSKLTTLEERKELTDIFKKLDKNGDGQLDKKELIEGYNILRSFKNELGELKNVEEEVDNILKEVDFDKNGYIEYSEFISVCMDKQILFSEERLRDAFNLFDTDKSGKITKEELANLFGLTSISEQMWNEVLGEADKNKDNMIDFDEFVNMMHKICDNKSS

Sample 1 — cell line: HEK-293T-ACE2-TMPRSS2; technique: cell count; concentration: 10 µM; quantity: viability
CCc1ccc(OCc2ccccc2C(=O)Nc2ccc3nc(C)cc(N)c3c2)cc1: 126%
CCc1cc2c(C)cc(=O)oc2cc1O: 69%
OC(CNCC1COc2ccccc2C1)COc1ccc(Cl)cc1Cl (centres unmarked): 88%
Cc1cccc(CN2CCCC3(CCN(c4nc(C)cnc4C)C3)C2=O)c1 (centres unmarked): 100%
Cc1ccc(C(=O)Nc2nc3cc(NC(=O)C4CCCCC4)ccc3s2)cc1: 72%
Cc1cccc(NC(=O)CCC2CCN(C(=O)C3=NN(C)C(=O)CC3)CC2)c1: 111%
Cc1cc2oc(=O)cc(C)c2cc1NC(=O)COCC(F)(F)C(F)F: 66%
CC(=O)Nc1cccc(C(=O)N2CCOC(Cc3ccc(F)cc3)C2)c1 (centres unmarked): 114%
COc1cccc(Cl)c1-c1csc(C(N)=O)c1: 69%
CN(C)Cc1c(O)ccc2cc(-c3nc4ccccc4n3C)c(=O)oc12: 87%
Cn1ccnc1C(=O)C1CCCN(C(=O)c2cc(COc3ccc(F)c(F)c3)on2)C1 (centres unmarked): 100%

Sample 2 — cell line: A-375; concentration: 100 µM; time: 18 h; quantity: viability
CNC(=O)Oc1ccccc1OC(C)C: 85.2%
CC(NC(C)(C)C)C(=O)c1cccc(Cl)c1 (centres unmarked): 88.4%
Cn1c(CCCC(=O)O)nc2cc(N(CCCl)CCCl)ccc21: 86%
C[C@@H]1CC[C@H]2[C@@H](C)C(=O)O[C@@H]3O[C@@]4(C)CC[C@@H]1[C@]32OO4: 98.5%
CC(C)N(CCC(C(N)=O)(c1ccccc1)c1ccccn1)C(C)C (centres unmarked): 69.1%
N#Cc1nn(-c2c(Cl)cc(C(F)(F)F)cc2Cl)c(N)c1[S+]([O-])C(F)(F)F (centres unmarked): 44.6%
NCC(CC(=O)O)c1ccc(Cl)cc1 (centres unmarked): 92.4%
CC(C)N(CCNC(=O)CN1CCCC1=O)C(C)C: 94.1%

Sample 3 — SMILES: COc1ccc2c(c1)/C(=C/c1cnc[nH]1)C(=O)N2; effect on: enzyme activity; mode: inhibitor; concentration: 0.5 µM; baseline: control; quantity: remaining activity
GRK6 (Homo sapiens, UniProt P43250): 85.2%
RPS6KA1 (Homo sapiens, UniProt Q15418): 69.6%
GRK2 (Homo sapiens, UniProt P25098): 107%
EPHA7 (Homo sapiens, UniProt Q15375): 90.4%
SGK1 (Homo sapiens, UniProt O00141): 71.5%
RPS6KB1 (Homo sapiens, UniProt P23443): 98.2%
MYLK (Homo sapiens, UniProt Q15746): 80.9%

Single results of other studies
HTR2C: 5-hydroxytryptamine receptor 2C (HTR2C, Homo sapiens, UniProt P28335)
Sequence of UniProt P28335 (whole entry, looked up): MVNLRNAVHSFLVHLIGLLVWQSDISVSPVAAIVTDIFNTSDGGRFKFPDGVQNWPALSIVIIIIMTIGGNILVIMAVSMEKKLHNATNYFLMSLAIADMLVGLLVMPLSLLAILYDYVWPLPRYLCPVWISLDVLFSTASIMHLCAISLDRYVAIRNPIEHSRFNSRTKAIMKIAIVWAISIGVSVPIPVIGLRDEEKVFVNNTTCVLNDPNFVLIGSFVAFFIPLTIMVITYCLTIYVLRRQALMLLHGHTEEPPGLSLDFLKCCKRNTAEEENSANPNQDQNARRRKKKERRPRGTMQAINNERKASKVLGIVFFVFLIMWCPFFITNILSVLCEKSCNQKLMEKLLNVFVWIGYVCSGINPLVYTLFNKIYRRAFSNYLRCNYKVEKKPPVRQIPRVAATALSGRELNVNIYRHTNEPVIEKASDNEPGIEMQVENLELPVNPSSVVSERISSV
CNC(=O)c1cc(C(=O)N[C@H]2[C@@H]3COC[C@@H]32)cc2c1O[C@@H](CF)[C@@H]2c1ccccc1  inhibition (HTR2C; binding, radioligand binding; 10 µM): -11%
C[C@@H]1CN(c2cc(-c3nn(C)c4ccc(OC5(C)CC5)cc34)ncn2)C[C@H](C)O1  inhibition (HTR2C; binding, radioligand binding; 10 µM): 18.7%
CNC(=O)Nc1ccc2c(c1)[C@@]1(CC2)OC(=O)N(CC(=O)N(Cc2ccc(F)cc2)[C@@H](C)C(F)(F)F)C1=O  remaining binding (CDPK1 (Plasmodium falciparum, UniProt P62344); cell-free assay, competition with immobilised ligand; 1 µM): 93%

For quick reference, copied from above (sample 1):
Cc1cccc(NC(=O)CCC2CCN(C(=O)C3=NN(C)C(=O)CC3)CC2)c1: 111%
Cc1cc2oc(=O)cc(C)c2cc1NC(=O)COCC(F)(F)C(F)F: 66%
CC(=O)Nc1cccc(C(=O)N2CCOC(Cc3ccc(F)cc3)C2)c1 (centres unmarked): 114%
COc1cccc(Cl)c1-c1csc(C(N)=O)c1: 69%
CN(C)Cc1c(O)ccc2cc(-c3nc4ccccc4n3C)c(=O)oc12: 87%
